Measurements gathered from unrelated publications.
± marks the error that the study gave.

| Compound | test | system | setting | tissue uptake |
| --- | --- | --- | --- | --- |
| CC(C)[C@H](NC(=O)[C@@H]1CCCN1C(=O)[C@H](CCCNC(=N)N)NC(=O)[C@H](CS)NC(=O)[C@H](Cc1c[nH]c2ccccc12)NC(=O)[C@H](CCCNC(=N)N)NC(=O)[C@@H](Cc1ccccc1)NC(=O)[C@H](Cc1c[nH]cn1)NC(=O)[C@H](CCC(=O)O)NC(=O)[C@H](CS)NC(=O)[C@H](CS)NC(=O)[C@@H]1CC(=O)N[C@@H](CCCNC(=N)N)C(=O)NCC(=O)N[C@@H](CC(=O)O)C(=O)N[C@H](Cc2ccc(O)cc2)C(=O)N1)C(N)=O [technetium-99m labelled] |  | C57 mouse, female, B16/F1 melanoma, muscle | intravenous, 0.037 MBq, 0.5 h | 0.98 ± 0.21 %ID/g |
| O=C(O)C1CN(Cc2ccc(-c3noc(-c4ccc(OCC[18F])c(C(F)(F)F)c4)n3)cc2)C1 |  | male Sprague-Dawley rat, bone | intravenous, 5 min | 0.215 ± 0.027 %ID/g |
| CC(C)[C@H](NC(=O)[C@@H]1CCCN1C(=O)[C@H](CCCNC(=N)N)NC(=O)[C@H](CS)NC(=O)[C@H](Cc1c[nH]c2ccccc12)NC(=O)[C@H](CCCNC(=N)N)NC(=O)[C@@H](Cc1ccccc1)NC(=O)[C@H](Cc1c[nH]cn1)NC(=O)[C@H](CCC(=O)O)NC(=O)[C@H](CS)NC(=O)[C@H](CS)NC(=O)CNC(=O)[C@@H]1CC(=O)N[C@@H](CCCNC(=N)N)C(=O)NCC(=O)N[C@@H](CC(=O)O)C(=O)N[C@H](Cc2ccc(O)cc2)C(=O)N1)C(N)=O [technetium-99m labelled] |  | C57 mouse, female, B16/F1 melanoma, pancreas | intravenous, 0.037 MBq, 4 h | 0.24 ± 0.13 %ID/g |
| OCc1cn(Cc2ccc(-c3noc(-c4ccc(OCC[18F])c(C(F)(F)F)c4)n3)cc2)nn1 |  | female Lewis rat, thymus | intravenous, 60 min | 0.82 ± 0.04 %ID/g |
| CCCC[C@H](NC(=O)CNC(=O)CNC(=O)CN1CCN(CC(=O)O)CCN(CC(=O)O)CC1)C(=O)N[C@H]1CC(=O)NCCCC[C@@H](C(N)=O)NC(=O)[C@H](Cc2c[nH]c3ccccc23)NC(=O)[C@H](CCCNC(=N)N)NC(=O)[C@@H](Cc2ccccc2)NC(=O)[C@H](Cc2c[nH]cn2)NC1=O [copper-64 labelled] |  | female C57 mouse, B16/F1 melanoma, muscle | intravenous, 0.037 MBq, 0.5 h | 0.31 ± 0.08 %ID/g |
| CCCC[C@H](NC(=O)CNC(=O)CNC(=O)CN1CCN(CC(=O)O)CCN(CC(=O)O)CC1)C(=O)N[C@H]1CC(=O)NCCCC[C@@H](C(N)=O)NC(=O)[C@H](Cc2c[nH]c3ccccc23)NC(=O)[C@H](CCCNC(=N)N)NC(=O)[C@@H](Cc2ccccc2)NC(=O)[C@H](Cc2c[nH]cn2)NC1=O [gallium-67 labelled] |  | C57 mice, female, B16/F1 melanoma, intestines | intravenous, 0.037 MBq, 2 h | 1.22 ± 0.97 %ID |
| O=C([O-])CN1CCN(CC(=O)[O-])CCN(CC(=O)[O-])CCN(CC(=O)[O-])CC1.[64Cu+2] |  | healthy athymic nude mice, heart | intravenous, 4 h | 0.57 %ID/g |
| CCCC[C@H](NC(=O)CNC(=O)CNC(=O)CN1CCN(CC(=O)O)CCN(CC(=O)O)CCN(CC(=O)O)CC1)C(=O)N[C@H]1CC(=O)NCCCC[C@@H](C(N)=O)NC(=O)[C@H](Cc2c[nH]c3ccccc23)NC(=O)[C@H](CCCNC(=N)N)NC(=O)[C@@H](Cc2ccccc2)NC(=O)[C@H](Cc2c[nH]cn2)NC1=O [copper-64 labelled] |  | female C57 mouse, B16/F1 melanoma, heart | intravenous, 0.037 MBq, 0.5 h | 2.22 ± 0.25 %ID/g |
| C[C@H](CN(C)Cc1ccccc1)NC(=O)c1ccc(-c2noc(C(F)(F)[18F])n2)cc1 | PET imaging | female Sprague-Dawley rats, hippocampus | intravenous, 60 min | 1.34 ± 0.23 SUV |
| O=C([O-])CN1CCN(CC(=O)[O-])CCN(CC(=O)NCCc2ccc3c(c2)C2C=CCC2C(c2cc4c(cc2Br)OCO4)N3)CCN(CC(=O)[O-])CC1.[111In+3] (centres unmarked) |  | mouse, Hec50 endometrial tumour, large intestine | 1 h post injection | 8.32 ± 1.03 %ID/g |
| CCCC[C@@H]1NC(=O)[C@@H](NC(=O)[C@H](CCC(=O)O)NC(=O)CNC(=O)CN2CCN(CC(=O)O)CCN(CC(=O)O)CCN(CC(=O)O)CC2)CCCCNC(=O)C[C@@H](C(N)=O)NC(=O)[C@H](C(C)C)NC(=O)[C@@H]2CCCN2C(=O)[C@H](CCCNC(=N)N)NC(=O)CNC(=O)[C@H](Cc2c[nH]c3ccccc23)NC(=O)[C@H](CCCNC(=N)N)NC(=O)[C@@H](Cc2ccccc2)NC(=O)[C@H](Cc2c[nH]cn2)NC(=O)[C@H](CCC(=O)O)NC1=O [gallium-67 labelled] |  | normal C57 mice, pancreas | intravenous, 0.037 MBq/mouse, 4 h | 0.2 ± 0.07 %ID/g |

Excerpt of the above:
| Compound | test | system | setting | tissue uptake |
| --- | --- | --- | --- | --- |
| CC(C)[C@H](NC(=O)[C@@H]1CCCN1C(=O)[C@H](CCCNC(=N)N)NC(=O)[C@H](CS)NC(=O)[C@H](Cc1c[nH]c2ccccc12)NC(=O)[C@H](CCCNC(=N)N)NC(=O)[C@@H](Cc1ccccc1)NC(=O)[C@H](Cc1c[nH]cn1)NC(=O)[C@H](CCC(=O)O)NC(=O)[C@H](CS)NC(=O)[C@H](CS)NC(=O)[C@@H]1CC(=O)N[C@@H](CCCNC(=N)N)C(=O)NCC(=O)N[C@@H](CC(=O)O)C(=O)N[C@H](Cc2ccc(O)cc2)C(=O)N1)C(N)=O [technetium-99m labelled] |  | C57 mouse, female, B16/F1 melanoma, muscle | intravenous, 0.037 MBq, 0.5 h | 0.98 ± 0.21 %ID/g |
| O=C(O)C1CN(Cc2ccc(-c3noc(-c4ccc(OCC[18F])c(C(F)(F)F)c4)n3)cc2)C1 |  | male Sprague-Dawley rat, bone | intravenous, 5 min | 0.215 ± 0.027 %ID/g |
